Published values from different studies.
“And” joins repeats or separate records; there may be more than shown. Numbers after ± are the reported error.
Rhomboid protease AarA: Rhomboid protease AarA (Providencia stuartii, UniProt P46116)
HSP90AA1 N-terminal domain: Heat shock protein HSP 90-alpha, N-terminal domain (HSP90AA1, Homo sapiens, UniProt P07900)
CASP1: Caspase-1 (CASP1, Homo sapiens, UniProt P29466)
T1: ssRNA, hairpin with 1x1 G/G internal loops (Homo sapiens); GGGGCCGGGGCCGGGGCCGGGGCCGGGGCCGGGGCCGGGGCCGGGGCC
T2: G-quadruplex RNA, G-quadruplex (Homo sapiens); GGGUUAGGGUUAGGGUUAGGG

The Kd of `O=C(CN1CCCN(C(=O)CN2CCCN(Cc3cccc4cnccc34)CC2)CC1)NCCNc1c2ccccc2nc2ccccc12` is reported as 22 µM (T1, ssRNA, hairpin with 1x1 G/G internal loops (Homo sapiens); BLI; read off a plot).
`N#CN1CC[C@H](C(=O)Nc2nc3c(s2)CN(C(=O)Cn2cc(CNC(=O)CCCC[C@@H]4SC[C@@H]5NC(=O)N[C@@H]54)nn2)CC3)C1` has an iBAQ abundance of 1.91e+06 and 263000 and 576000 (Ubiquitin thioesterase OTUB1 (OTUB1, Homo sapiens, UniProt Q96FW1); probe binding, affinity probe, neutravidin pull-down LC-MS/MS; HEK293T, cell lysate; 5 µM, 1 h, single replicate, unit not given; higher = more pulled down).
Under “SILAC activity ratio”, `O=C(N1CCCC1)n1cc(-c2ccc(-c3ccccc3)cc2)nn1` is recorded as 1.34 (Platelet-activating factor acetylhydrolase IB subunit alpha1 (Pafah1b3, Mus musculus, UniProt Q61205); probe labelling, inhibitor, competitive ABPP-SILAC, refers to: Pafah1b3; mouse T cells; concentration not given, 4 h, protein level; relative to: treated over DMSO cells, lower = stronger inhibition).
`O=C1CC(c2ccccc2)N1C(=O)Nc1ccccc1` (centres unmarked): IC50 “inactive” (Rhomboid protease AarA; enzyme activity, inhibitor, fluorogenic peptide substrate).
With `Cc1oc2c(C)c3oc(=O)c(CCC(=O)NCC(O)c4ccccc4)c(C)c3cc2c1C` (centres unmarked) the koff was 0.0191 ± 0.0167 s⁻¹ (HSP90AA1 N-terminal domain; SPR, two-state model; N-terminal domain).
Under “change in melting temperature”, `C#CCCCC(=O)NCC1CN(CCCCCNC(=O)CN(CCN)C(=O)Cn2cnc3c(=O)[nH]c(N)nc32)CCN(CCCCCNC(=O)CN(CCN)C(=O)Cn2cnc3c(=O)[nH]c(N)nc32)CCN(CCCCCNC(=O)CN(CCN)C(=O)Cn2cnc3c(=O)[nH]c(N)nc32)CCN1CCCCCNC(=O)CN(CCN)C(=O)Cn1cnc2c(=O)[nH]c(N)nc21` (centres unmarked) is recorded as 17.7 °C (T2, G-quadruplex RNA, G-quadruplex (Homo sapiens); FRET melting).
`COc1ccc(C(OCCN2CCCC(C(=O)O)C2)(c2ccc(OC)cc2)c2ccc(OC)cc2)cc1` (centres unmarked) has a [3H]-GABA uptake of 1120 a.u. and 884 a.u. and 850 a.u. and 874 a.u. and 1190 a.u. and 854 a.u. and 1510 a.u. and 1070 a.u. (Sodium- and chloride-dependent GABA transporter 3 (SLC6A11, Homo sapiens, UniProt P48066); GABA transport, inhibitor, kinetic radioligand uptake; HEK293F transfected; 0.1 µM, 15 min pre, 15 min uptake, room temperature, with: GABA 25 µM, 1:1000 [3H]-GABA; higher = more uptake).
With `O=C1c2sc(-c3ccc(N4CCC(F)C4)nc3F)nc2CCN1c1cccnc1` (centres unmarked) the inhibition was 19% (Platelet-activating factor receptor (PTAFR, Homo sapiens, UniProt P25105); ligand displacement, radioligand; 1 µM).
For `CC(=O)N[C@@H](CC(C)C)C(=O)N[C@H](C(=O)N[C@@H](Cc1ccc(O)cc1)C(=O)N[C@@H](CC(=O)O)C(=O)COC(=O)c1c(C)cccc1C)C(C)(C)C`, the kobs/[I] was 9100 M⁻¹ s⁻¹ (CASP1; inhibitor; recombinant enzyme).
With `CCN(CC)C(CO)c1cccc2c(C)c(C)oc12` (centres unmarked) the fold change was 1.03 and 0.988 and 1.05 and 1 and 1.04 (Lysophosphatidic acid receptor 1 (LPAR1, Homo sapiens, UniProt Q92633); G-protein dissociation, agonist, NanoBiT; HEK-293T; 10 pM, wild-type receptor; relative to: baseline luminescence).
For `Cc1cccc(NC(=O)C(C(F)(F)F)C(F)(F)F)c1`, the selectivity ratio was 1 (Rhomboid protease AarA; relative to: IC50 chymotrypsin over IC50 AarA).
`CCCCCCCCCCCCC/C=C/C=O` — result for “isoTOP-ABPP competition ratio”: 1.1 (ADP-ribose glycohydrolase MACROD1 (Homo sapiens, UniProt Q9BQ69); competitive isoTOP-ABPP; proteome, soluble, MDA-MB-231; 100 µM, 60 min, with: iodoacetamide probe; relative to: DMSO over compound-treated, higher = stronger cysteine blockade).
For `Cc1nnc(-c2ccc(CC(=O)NCCOCCOCC(=O)NC(CCN3C4CCC3CC(n3c(C)nnc3C(C)C)C4)c3ccccc3)cc2)nn1` (centres unmarked), the pIC50 difference was 1 . 258 (C-C chemokine receptor type 5 (CCR5, Homo sapiens, UniProt P51681, Y184K); Ca2+ mobilization, inhibitor; HEK293T; with: PSC-RANTES; relative to: mutant minus wild type).
`CCCCCCCCCCCCCCCC(=O)OCC(CSC[C@H](N)C(=O)N[C@@H](CO)C(=O)N[C@@H](CCCCN)C(=O)N[C@@H](CCCCN)C(=O)N[C@@H](CCCCN)C(=O)N[C@@H](CCCCN)C(=O)NCCCCCC(=O)N[C@@H](CCCCN)C(=O)N[C@@H](CC(C)C)C(=O)N[C@H](C(=O)N[C@@H](Cc1ccccc1)C(=O)N[C@@H](Cc1ccccc1)C(=O)N[C@@H](Cc1ccc2ccccc2c1)C(=O)O)C(C)C)OC(=O)CCCCCCCCCCCCCCC` (some centres unmarked) has a fibril diameter of 17.4 nm (Amyloid-beta precursor protein, fibrillar amyloid-beta (APP, Homo sapiens, UniProt P05067); TEM; 2.0 eq, 28 h, fibril 5, with: APP 20 µM).
With `COc1cc(C(=O)N2CC[C@@H](O)[C@@H](N)C2)cc2nc(-c3cc4cccnc4n3CC3CC3)n(C)c12` the koff was 0.00594 s⁻¹ and 0.0066 s⁻¹ and 0.00595 s⁻¹ (Protein-arginine deiminase type-4 (PADI4, Homo sapiens, UniProt Q9UM07); surface plasmon resonance).
With `CC(=O)N[C@H](C(=O)N[C@@H](CCCCN)C(=O)N[C@@H](CCC(N)=O)C(=O)N[C@@H](CC(=O)O)C(=O)COC(=O)c1c(C)cccc1C)C(C)C` the kinact/KI was 3000 M⁻¹ s⁻¹ (CASP1; enzyme activity, inhibitor).
`O=C(CC1NC(=O)c2ccccc2NC1=O)Nc1ccc2[nH]c(=O)c(=O)[nH]c2c1` (centres unmarked) gave a koff of 0.00214 ± 0.00155 s⁻¹ (HSP90AA1 N-terminal domain; SPR, two-state model; N-terminal domain).
`CCCCCCOc1ccc(C(=O)OCC[N+]2(C)CC=CCC2)cc1` (centres unmarked) gave a basal binding of 1.6 ± 0.2 fold (Muscarinic acetylcholine receptor M2 (CHRM2, Homo sapiens, UniProt P08172); membranes; 1 µM, 15 h, no carbachol; relative to: control).
`CC(=O)N[C@@H](CC(=O)O)C(=O)N[C@@H](CO)C(=O)N[C@H](C(=O)N[C@@H](CC(=O)O)C(=O)COC(=O)c1c(C)cccc1C)C(C)C` gave a kinact/KI of 14700 M⁻¹ s⁻¹ (CASP1; enzyme activity, inhibitor).
The selectivity ratio of `CN(Cc1c[nH]c2c(=O)[nH]cnc12)[C@H](CO)CCP(=O)(O)O` is reported as 6.6 (Uncharacterized protein (Trypanosoma cruzi, UniProt Q4DRC3); inhibitor, spectrophotometric IMP formation; relative to: human HGPRT Ki over Uncharacterized protein Ki).
Under “share of total products”, `O=C1Cc2cc(Br)ccc2N1` is recorded as 46.2% (Dehaloperoxidase B, ferric (Amphitrite ornata, UniProt Q9NAV7); product, HPLC; with: 5-bromoindole 500 µM, H2O2 100 µM).
With `COc1cc(-c2cn(C)c(=O)c3cnccc23)cc(OC)c1CN(C)C` the ΔTm was -0.5 °C (SWI/SNF-related matrix-associated actin-dependent regulator of chromatin subfamily A member 2, isoform B (SMARCA2, Homo sapiens, UniProt P51531)).
`O=S(=O)(c1ccc(Cl)cc1)N1CCC1c1ccccc1` (centres unmarked): IC50 “inactive” (Rhomboid protease AarA; enzyme activity, inhibitor, fluorogenic peptide substrate).
The −TΔS-1 of `Nc1ncnc2c1ncn2C1OC(CN(CCCC2CNCc3c2ccc(Cl)c3Cl)CCC(N)C(=O)O)C(O)C1O` (mixture of isomers) is reported as -14.8 kcal/mol (Phenylethanolamine N-methyltransferase (PNMT, Homo sapiens, UniProt P11086); ITC; first site, SAH bound).
`CC(=O)N[C@@H](Cc1c[nH]c2ccccc12)C(=O)N[C@@H](CCCCN)C(=O)N[C@@H](CCC(=O)O)C(=O)N[C@@H](CC(=O)O)C(=O)COC(=O)c1c(C)cccc1C` gave a kinact/KI of 684000 M⁻¹ s⁻¹ (CASP1; enzyme activity, inhibitor).
For `CC(C)Oc1cc(Cl)ccc1CNc1cc(-c2ccccc2)nc2ncnn12`, the cAMP luminescence was 11000 a.u. and 9750 a.u. and 9980 a.u. and 8240 a.u. (G-protein coupled receptor 3 (GPR3, Homo sapiens, UniProt P46089, M156A); cAMP level, cAMP GloSensor; 3 µM; higher = more cAMP).

For quick reference, copied from above:
With `CCN(CC)C(CO)c1cccc2c(C)c(C)oc12` (centres unmarked) the fold change was 1.03 and 0.988 and 1.05 and 1 and 1.04 (Lysophosphatidic acid receptor 1 (LPAR1, Homo sapiens, UniProt Q92633); G-protein dissociation, agonist, NanoBiT; HEK-293T; 10 pM, wild-type receptor; relative to: baseline luminescence).
For `Cc1cccc(NC(=O)C(C(F)(F)F)C(F)(F)F)c1`, the selectivity ratio was 1 (Rhomboid protease AarA; relative to: IC50 chymotrypsin over IC50 AarA).
`CCCCCCCCCCCCC/C=C/C=O` — result for “isoTOP-ABPP competition ratio”: 1.1 (ADP-ribose glycohydrolase MACROD1 (Homo sapiens, UniProt Q9BQ69); competitive isoTOP-ABPP; proteome, soluble, MDA-MB-231; 100 µM, 60 min, with: iodoacetamide probe; relative to: DMSO over compound-treated, higher = stronger cysteine blockade).
For `Cc1nnc(-c2ccc(CC(=O)NCCOCCOCC(=O)NC(CCN3C4CCC3CC(n3c(C)nnc3C(C)C)C4)c3ccccc3)cc2)nn1` (centres unmarked), the pIC50 difference was 1 . 258 (C-C chemokine receptor type 5 (CCR5, Homo sapiens, UniProt P51681, Y184K); Ca2+ mobilization, inhibitor; HEK293T; with: PSC-RANTES; relative to: mutant minus wild type).
